Measurements pooled from the literature.
Parts stem from different laboratories: compare values within a part only. Substitutions count along the parent as printed.

Sample 1
Target: Prothrombin, mature alpha-thrombin (F2, Homo sapiens, UniProt P00734)
Method: aptamer microarray, sandwich
Molecule type: DNA with 2'F-ANA
Matrix: in vitro
Tested at: 200 nM
Notes: whole 15-mer aptamer, many near background
Together with: Cy3 exosite-II aptamer, 400 nM
Reading: higher = stronger binding
Sequence: GGTTGGTGTGGTTGG
For `2'F-ANA at 1 4 14 15`, “mean fluorescence intensity” read 48.9 a.u.
`2'F-ANA at 1 2 5 10 14 15` — result for “mean fluorescence intensity”: 48.7 a.u.
For `2'F-ANA at 1 2 4 5 6 7 10 12 14`, “mean fluorescence intensity” read 78.2 a.u.
`2'F-ANA at 8 14 15`: “mean fluorescence intensity” 222 a.u.
For `2'F-ANA at 2 4 8 10 11 12 15`, “mean fluorescence intensity” read 102 a.u.
Under “mean fluorescence intensity”, `2'F-ANA at 1 6 10 14 15` is recorded as 44.9 a.u.
`2'F-ANA at 1 2 3 6 7 8 11 15` — result for “mean fluorescence intensity”: 192 a.u.
For `2'F-ANA at 1 4 5 6 7 8 10 11 13 14 15`, “mean fluorescence intensity” read 50.3 a.u.
Under “mean fluorescence intensity”, `2'F-ANA at 1 2 3 4 11 13 14` is recorded as 59.4 a.u.
For `2'F-ANA at 2 3 4 5 6 10 12 15`, “mean fluorescence intensity” read 106 a.u.
Under “mean fluorescence intensity”, `2'F-ANA at 2 3 4 6 7 9 10 12 13 14` is recorded as 158 a.u.
`2'F-ANA at 2 3 7 9 11 12 13 14`: “mean fluorescence intensity” 399 a.u.
For `2'F-ANA at 1 4 6 13 14 15`, “mean fluorescence intensity” read 50.2 a.u.
For `2'F-ANA at 2 4 8 9 12 14 15`, “mean fluorescence intensity” read 131 a.u.
`2'F-ANA at 1 2 3 4 9 12 13 14` — result for “mean fluorescence intensity”: 60 a.u.
`2'F-ANA at 3 4 9 11 15` — result for “mean fluorescence intensity”: 542 a.u.
`2'F-ANA at 1 4 5 6 8 12 13 15` — result for “mean fluorescence intensity”: 76.9 a.u.
For `2'F-ANA at 1 3 4 6 7 8 12 13`, “mean fluorescence intensity” read 342 a.u.

Sample 2
Molecule: PhoQ, residues 284 288 289 292 302 303 SACGEM
Method: Sort-seq
Refers to: YFP reporter
Matrix: E. coli
Notes: PhoQ-PhoP variant library
Together with: 10 µM Mg2+
Reference: high Mg2+ state
Reading: higher = stronger signaling
PhoP, residues 12 14 15 18 19 TQALL (Escherichia coli, UniProt P23836) — fold induction: 2.
For PhoP, residues 12 14 15 18 19 QYFSL (Escherichia coli, UniProt P23836): fold induction read 15.5.
For PhoP, residues 12 14 15 18 19 NYFRM (Escherichia coli, UniProt P23836): fold induction read 13.8.

Sample 3
Target: CCNA1, cyclin fold, Cln2 fusion (human)
Method: yeast growth competition, sequencing
Matrix: yeast
Notes: weak parent motif
Reference: not given
Reading: higher = stronger binding
Starting sequence: GMNC docking peptide (human); KNAKRNLSSEFAN; partner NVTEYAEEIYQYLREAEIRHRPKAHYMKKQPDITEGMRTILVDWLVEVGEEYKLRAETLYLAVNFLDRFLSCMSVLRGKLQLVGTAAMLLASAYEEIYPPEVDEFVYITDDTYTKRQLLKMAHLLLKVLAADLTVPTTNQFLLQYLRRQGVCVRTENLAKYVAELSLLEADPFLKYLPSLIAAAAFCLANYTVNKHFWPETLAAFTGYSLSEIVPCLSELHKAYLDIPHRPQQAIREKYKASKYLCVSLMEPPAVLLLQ
For `A3I`, “normalised enrichment score” read 0.754.
`K4S`: “normalised enrichment score” 0.37.
For `S8A`, “normalised enrichment score” read 0.528.
For `R5H`, “normalised enrichment score” read 0.354.
`R5A` — result for “normalised enrichment score”: 0.244.
`R5D` — result for “normalised enrichment score”: -0.162.
For `A12W`, “normalised enrichment score” read 0.525.
`F11M`: “normalised enrichment score” 0.535.
Under “normalised enrichment score”, `L7S` is recorded as -0.271.
Under “normalised enrichment score”, `E10Q` is recorded as 0.825.
`L7I`: “normalised enrichment score” 1.64.
`A12H`: “normalised enrichment score” 0.298.
For `L7V`, “normalised enrichment score” read 0.341.
For `K4A`, “normalised enrichment score” read 0.0295.
Under “normalised enrichment score”, `F11Y` is recorded as 0.313.
Under “normalised enrichment score”, `R5N` is recorded as 0.269.
`E10H` — result for “normalised enrichment score”: 0.0699.
Under “normalised enrichment score”, `A3C` is recorded as 0.633.
`A3D`: “normalised enrichment score” 0.167.
`F11L`: “normalised enrichment score” 0.283.
For `S9W`, “normalised enrichment score” read 0.489.

Sample 4
Target: Sal-like protein 4, full length isoform A (SALL4, Homo sapiens, UniProt Q9UJQ4, residues 1-1053)
UniProt Q9UJQ4, sequence (whole entry, looked up): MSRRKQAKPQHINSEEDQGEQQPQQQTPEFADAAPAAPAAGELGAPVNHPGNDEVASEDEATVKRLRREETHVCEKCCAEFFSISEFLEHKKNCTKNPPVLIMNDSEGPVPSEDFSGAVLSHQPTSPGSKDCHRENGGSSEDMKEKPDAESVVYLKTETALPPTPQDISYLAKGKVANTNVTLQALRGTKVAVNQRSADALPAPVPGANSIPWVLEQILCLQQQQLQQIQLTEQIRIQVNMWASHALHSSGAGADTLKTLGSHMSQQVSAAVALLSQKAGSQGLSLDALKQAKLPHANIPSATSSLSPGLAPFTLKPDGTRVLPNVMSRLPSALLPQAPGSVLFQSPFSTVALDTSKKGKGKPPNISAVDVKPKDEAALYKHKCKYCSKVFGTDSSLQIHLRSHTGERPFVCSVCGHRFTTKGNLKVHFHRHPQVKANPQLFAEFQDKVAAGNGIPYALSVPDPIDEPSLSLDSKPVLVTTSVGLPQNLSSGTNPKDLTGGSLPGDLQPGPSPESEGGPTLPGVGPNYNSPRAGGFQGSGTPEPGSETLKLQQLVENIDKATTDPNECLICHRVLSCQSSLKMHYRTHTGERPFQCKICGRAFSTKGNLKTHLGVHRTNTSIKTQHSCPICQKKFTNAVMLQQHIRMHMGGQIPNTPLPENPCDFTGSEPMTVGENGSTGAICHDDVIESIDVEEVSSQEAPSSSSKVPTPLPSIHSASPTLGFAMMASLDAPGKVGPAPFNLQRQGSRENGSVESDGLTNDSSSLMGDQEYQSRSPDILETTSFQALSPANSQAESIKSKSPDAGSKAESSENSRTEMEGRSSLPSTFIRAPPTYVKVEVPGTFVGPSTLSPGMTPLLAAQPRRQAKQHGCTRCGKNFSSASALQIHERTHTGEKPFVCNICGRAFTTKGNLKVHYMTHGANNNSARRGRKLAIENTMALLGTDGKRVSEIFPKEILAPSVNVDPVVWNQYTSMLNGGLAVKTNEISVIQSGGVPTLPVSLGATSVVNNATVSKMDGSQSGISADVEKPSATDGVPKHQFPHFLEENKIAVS
Method: universal PBM
Molecule type: double-stranded DNA, one strand shown
Matrix: in vitro
Tested at: 600 nM
Notes: 8-mer, flanks averaged, mean of replicates
Reading: higher = stronger binding
The E-score of `AATTTGCG` is reported as 0.045.
For `GCTGAACC`, the E-score was -0.279.
With `CGAAGGGC` the E-score was -0.274.
With `CGTGTGCA` the E-score was -0.134.
For `AGGCGGGG`, the E-score was -0.176.
For `AACGCTTC`, the E-score was 0.059.
For `AGATCCCA`, the E-score was -0.0654.
For `CGGTGTCC`, the E-score was -0.389.
`ACCAGTAG` gave an E-score of -0.0798.
`ATATGACC` has an E-score of 0.17.
The E-score of `CGAACTCC` is reported as -0.102.
`AGCAGGTA` has an E-score of -0.00353.
`CGCTACTA` gave an E-score of -0.0134.
For `CAAACATC`, the E-score was 0.0842.
For `CAGAAGCA`, the E-score was 0.0725.
`CCTTCACC` has an E-score of -0.191.

Sample 5
Target: Histone acetyltransferase KAT6A, winged helix 1, GST fusion (KAT6A, Homo sapiens, UniProt Q92794, residues 1-85)
Method: protein binding microarray
Molecule type: double-stranded DNA, one strand shown
Matrix: in vitro
Tested at: not given
Notes: 8-mer, flanks averaged, mean of 2 arrays, mostly near background
Reference: not given
Reading: higher = stronger binding
Residues (chain): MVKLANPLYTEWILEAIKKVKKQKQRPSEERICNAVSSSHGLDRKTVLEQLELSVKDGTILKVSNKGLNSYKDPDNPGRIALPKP
With `ACACTGTG` the E-score was -0.0813.
With `GCCCTCGC` the E-score was 0.234.
For `CTTACTCA`, the E-score was -0.0789.
The E-score of `AAATGCGG` is reported as 0.127.
`AAGCCAAC` has an E-score of -0.033.
The E-score of `ATTAAAGG` is reported as -0.0593.
`AACGTCGT` has an E-score of -0.0281.
The E-score of `ATGACACC` is reported as -0.216.
`AATTCGAA` gave an E-score of -0.201.
`ACATGAAG` has an E-score of -0.0519.
`GCGCCGCC` has an E-score of 0.459.
For `CGGGATGC`, the E-score was 0.282.
With `CGCGTCTC` the E-score was 0.262.
`AGTTCCGA` has an E-score of 0.112.
With `CCCTCTCC` the E-score was -0.107.
The E-score of `CGTCCAAA` is reported as 0.0437.
`GACCGGTC` has an E-score of 0.204.
With `AATCCACG` the E-score was 0.0426.
With `GTGCAAAA` the E-score was -0.199.
`ATCCCACA` gave an E-score of -0.27.
The E-score of `CGCTCGTC` is reported as 0.186.
`CTACGGAA` gave an E-score of 0.0871.
The E-score of `AGGGGGGA` is reported as -0.263.
`AAATTGAG` has an E-score of -0.264.
With `CCCGGAAC` the E-score was 0.118.

Sample 6
Target: MAFG, bZIP domain (human)
Method: DHFR protein complementation
Matrix: yeast
Notes: single substitutions, most at no-binding floor
Reference: wild-type JUN-FOS pair
Reading: higher = stronger binding
Starting sequence: JUN, bZIP domain (human); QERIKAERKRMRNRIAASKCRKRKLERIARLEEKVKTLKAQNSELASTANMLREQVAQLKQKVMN; partner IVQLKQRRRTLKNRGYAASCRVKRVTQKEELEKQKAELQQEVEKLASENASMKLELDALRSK
The binding fitness of `N42D` is reported as -1.61 natural log.
`I28W` has a binding fitness of -1.25 natural log.
The binding fitness of `L45M` is reported as -1.46 natural log.
`T48S` gave a binding fitness of -1.43 natural log.
`K36A` has a binding fitness of -1.17 natural log.
The binding fitness of `T48E` is reported as -1.29 natural log.
The binding fitness of `K34T` is reported as -1.15 natural log.
`E44Y` gave a binding fitness of -1.55 natural log.
The binding fitness of `E32I` is reported as -1.5 natural log.
With `K36Q` the binding fitness was -1.21 natural log.
`A40E` has a binding fitness of -1.45 natural log.
For `V35S`, the binding fitness was -1.53 natural log.
The binding fitness of `S47C` is reported as -1.3 natural log.
With `V35W` the binding fitness was -1.43 natural log.
For `N42Q`, the binding fitness was -1.38 natural log.
`N42S` has a binding fitness of -1.46 natural log.
`L38E` gave a binding fitness of -1.25 natural log.
With `A46H` the binding fitness was -1.44 natural log.
`A46R` gave a binding fitness of -1.27 natural log.
`M51T` has a binding fitness of -1.5 natural log.
For `R30P`, the binding fitness was -1.46 natural log.
The binding fitness of `K36V` is reported as -1.45 natural log.
`L52A` gave a binding fitness of -1.56 natural log.
With `A29V` the binding fitness was -1.36 natural log.
With `R53D` the binding fitness was -1.56 natural log.

For quick reference, copied from above (sample 6):
`I28W` has a binding fitness of -1.25 natural log.
The binding fitness of `L45M` is reported as -1.46 natural log.
`T48S` gave a binding fitness of -1.43 natural log.
`K36A` has a binding fitness of -1.17 natural log.
The binding fitness of `T48E` is reported as -1.29 natural log.
The binding fitness of `K34T` is reported as -1.15 natural log.
`E44Y` gave a binding fitness of -1.55 natural log.
